Published values from different studies.
Every numbered part comes from another study and shows a few of its results, in no order. Several values in a cell are separate wells, animals, samples, runs or records.
Chain of UniProt P15056 (whole entry, unmodified, looked up): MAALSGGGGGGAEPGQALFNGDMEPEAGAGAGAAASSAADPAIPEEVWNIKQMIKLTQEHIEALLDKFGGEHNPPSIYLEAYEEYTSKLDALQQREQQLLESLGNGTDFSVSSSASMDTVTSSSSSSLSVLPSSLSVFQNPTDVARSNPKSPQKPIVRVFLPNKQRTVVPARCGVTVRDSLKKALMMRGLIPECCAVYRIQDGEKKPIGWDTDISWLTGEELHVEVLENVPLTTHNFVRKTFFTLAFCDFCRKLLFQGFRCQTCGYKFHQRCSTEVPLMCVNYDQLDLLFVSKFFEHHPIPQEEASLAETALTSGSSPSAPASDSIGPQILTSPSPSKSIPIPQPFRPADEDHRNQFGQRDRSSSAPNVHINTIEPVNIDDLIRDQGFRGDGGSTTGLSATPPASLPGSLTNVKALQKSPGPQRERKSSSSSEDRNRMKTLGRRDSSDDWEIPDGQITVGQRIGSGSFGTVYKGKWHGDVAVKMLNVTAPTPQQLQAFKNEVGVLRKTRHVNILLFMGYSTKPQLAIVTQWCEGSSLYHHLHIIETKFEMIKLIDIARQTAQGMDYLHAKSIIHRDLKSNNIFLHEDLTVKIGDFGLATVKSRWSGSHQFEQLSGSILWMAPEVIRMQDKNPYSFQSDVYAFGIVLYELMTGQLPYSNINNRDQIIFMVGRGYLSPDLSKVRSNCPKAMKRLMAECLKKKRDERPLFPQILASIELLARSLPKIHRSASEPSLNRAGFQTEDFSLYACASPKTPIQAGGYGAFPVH
Chain of UniProt P07949 (whole entry, looked up): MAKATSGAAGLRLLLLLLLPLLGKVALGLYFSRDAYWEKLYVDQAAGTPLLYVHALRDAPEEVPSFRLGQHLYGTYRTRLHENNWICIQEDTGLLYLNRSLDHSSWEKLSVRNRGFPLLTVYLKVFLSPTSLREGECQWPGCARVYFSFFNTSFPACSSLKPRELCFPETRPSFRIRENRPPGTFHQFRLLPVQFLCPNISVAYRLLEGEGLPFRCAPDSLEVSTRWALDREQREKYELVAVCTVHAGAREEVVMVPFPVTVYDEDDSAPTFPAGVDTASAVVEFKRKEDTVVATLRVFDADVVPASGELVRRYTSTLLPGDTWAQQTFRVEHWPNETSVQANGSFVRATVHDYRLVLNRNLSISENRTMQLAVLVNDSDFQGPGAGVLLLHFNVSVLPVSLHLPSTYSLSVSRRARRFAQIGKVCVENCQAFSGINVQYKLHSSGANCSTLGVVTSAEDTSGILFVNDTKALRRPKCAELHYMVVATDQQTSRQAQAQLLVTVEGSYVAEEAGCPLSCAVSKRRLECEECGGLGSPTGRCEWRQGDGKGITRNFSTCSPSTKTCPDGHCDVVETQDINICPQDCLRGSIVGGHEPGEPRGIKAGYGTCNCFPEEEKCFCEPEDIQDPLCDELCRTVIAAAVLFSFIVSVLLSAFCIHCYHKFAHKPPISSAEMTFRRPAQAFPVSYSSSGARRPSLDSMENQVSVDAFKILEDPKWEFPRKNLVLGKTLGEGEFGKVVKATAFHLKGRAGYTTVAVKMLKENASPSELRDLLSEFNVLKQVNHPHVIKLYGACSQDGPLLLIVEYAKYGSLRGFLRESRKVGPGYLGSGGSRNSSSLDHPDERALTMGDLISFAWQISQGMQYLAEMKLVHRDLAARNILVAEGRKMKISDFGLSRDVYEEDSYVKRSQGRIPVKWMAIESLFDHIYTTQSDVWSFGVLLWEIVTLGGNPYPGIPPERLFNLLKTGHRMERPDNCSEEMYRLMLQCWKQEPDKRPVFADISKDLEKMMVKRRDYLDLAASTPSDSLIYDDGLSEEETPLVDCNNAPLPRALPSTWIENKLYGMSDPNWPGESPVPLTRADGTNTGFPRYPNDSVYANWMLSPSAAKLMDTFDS
Chain of UniProt O95382 (whole entry, looked up): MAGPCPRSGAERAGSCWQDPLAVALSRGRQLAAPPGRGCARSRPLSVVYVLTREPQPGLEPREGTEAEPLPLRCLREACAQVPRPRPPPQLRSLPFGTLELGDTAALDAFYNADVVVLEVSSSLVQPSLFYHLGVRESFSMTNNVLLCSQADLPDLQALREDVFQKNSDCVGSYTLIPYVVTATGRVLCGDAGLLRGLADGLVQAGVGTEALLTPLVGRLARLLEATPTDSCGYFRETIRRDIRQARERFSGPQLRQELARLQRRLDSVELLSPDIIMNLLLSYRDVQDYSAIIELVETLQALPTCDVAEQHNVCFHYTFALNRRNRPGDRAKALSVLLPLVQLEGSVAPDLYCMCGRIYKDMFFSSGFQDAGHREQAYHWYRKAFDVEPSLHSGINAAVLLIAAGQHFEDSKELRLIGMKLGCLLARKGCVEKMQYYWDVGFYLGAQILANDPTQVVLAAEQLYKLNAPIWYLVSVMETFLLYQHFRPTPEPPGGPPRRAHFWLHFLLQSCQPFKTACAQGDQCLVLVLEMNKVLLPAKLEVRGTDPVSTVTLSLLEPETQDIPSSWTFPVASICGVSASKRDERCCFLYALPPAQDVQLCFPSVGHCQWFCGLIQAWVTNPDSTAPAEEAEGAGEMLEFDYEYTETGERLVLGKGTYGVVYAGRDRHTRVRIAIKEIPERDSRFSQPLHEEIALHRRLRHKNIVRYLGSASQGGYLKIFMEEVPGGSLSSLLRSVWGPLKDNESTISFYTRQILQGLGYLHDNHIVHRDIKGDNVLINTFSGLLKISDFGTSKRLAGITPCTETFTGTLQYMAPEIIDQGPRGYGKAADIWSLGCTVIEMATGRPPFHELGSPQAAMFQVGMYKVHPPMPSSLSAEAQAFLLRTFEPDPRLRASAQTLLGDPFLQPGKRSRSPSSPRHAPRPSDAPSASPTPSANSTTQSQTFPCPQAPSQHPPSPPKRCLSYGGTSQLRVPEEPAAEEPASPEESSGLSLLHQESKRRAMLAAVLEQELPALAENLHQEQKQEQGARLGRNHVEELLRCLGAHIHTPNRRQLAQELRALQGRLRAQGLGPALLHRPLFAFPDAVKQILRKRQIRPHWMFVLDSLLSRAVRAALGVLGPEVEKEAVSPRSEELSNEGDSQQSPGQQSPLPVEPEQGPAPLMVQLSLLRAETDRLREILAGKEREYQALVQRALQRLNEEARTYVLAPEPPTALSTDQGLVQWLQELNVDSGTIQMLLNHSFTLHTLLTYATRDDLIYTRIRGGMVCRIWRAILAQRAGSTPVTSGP
Chain of UniProt P05771 (whole entry, looked up): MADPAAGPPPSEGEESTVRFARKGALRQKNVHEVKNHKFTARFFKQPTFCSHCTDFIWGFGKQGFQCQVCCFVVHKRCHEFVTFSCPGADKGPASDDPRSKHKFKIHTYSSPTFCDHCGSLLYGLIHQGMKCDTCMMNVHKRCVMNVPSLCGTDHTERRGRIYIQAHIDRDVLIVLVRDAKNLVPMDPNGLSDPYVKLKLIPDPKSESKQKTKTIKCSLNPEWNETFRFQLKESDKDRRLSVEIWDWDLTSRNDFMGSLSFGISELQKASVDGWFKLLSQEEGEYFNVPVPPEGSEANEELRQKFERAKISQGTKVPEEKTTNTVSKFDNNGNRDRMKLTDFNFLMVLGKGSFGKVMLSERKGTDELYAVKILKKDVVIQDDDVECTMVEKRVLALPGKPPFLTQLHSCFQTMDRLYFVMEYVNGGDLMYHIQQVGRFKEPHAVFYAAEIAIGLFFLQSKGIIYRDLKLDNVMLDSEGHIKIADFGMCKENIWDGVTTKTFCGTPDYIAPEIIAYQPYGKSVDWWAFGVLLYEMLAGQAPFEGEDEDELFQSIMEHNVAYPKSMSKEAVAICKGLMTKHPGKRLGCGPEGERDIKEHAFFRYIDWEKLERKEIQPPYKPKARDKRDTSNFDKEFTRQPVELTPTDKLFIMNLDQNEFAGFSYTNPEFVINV
Chain of UniProt Q13882 (whole entry, looked up): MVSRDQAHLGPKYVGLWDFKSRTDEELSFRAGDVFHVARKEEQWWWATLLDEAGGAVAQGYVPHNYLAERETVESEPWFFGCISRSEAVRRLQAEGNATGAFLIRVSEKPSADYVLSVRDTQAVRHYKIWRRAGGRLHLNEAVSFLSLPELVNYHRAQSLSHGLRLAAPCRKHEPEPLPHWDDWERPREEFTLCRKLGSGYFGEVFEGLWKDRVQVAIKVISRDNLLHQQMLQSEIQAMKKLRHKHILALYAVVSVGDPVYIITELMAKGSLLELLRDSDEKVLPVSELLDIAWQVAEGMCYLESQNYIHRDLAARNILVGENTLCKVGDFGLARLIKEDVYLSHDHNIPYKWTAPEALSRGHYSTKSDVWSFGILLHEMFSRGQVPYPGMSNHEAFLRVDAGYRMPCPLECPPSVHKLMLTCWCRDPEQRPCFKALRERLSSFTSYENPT

Sample 1
Target: Calcium/calmodulin-dependent protein kinase type II subunit alpha (CAMK2A, Homo sapiens, UniProt Q9UQM7)
Chain of UniProt Q9UQM7 (whole entry, looked up): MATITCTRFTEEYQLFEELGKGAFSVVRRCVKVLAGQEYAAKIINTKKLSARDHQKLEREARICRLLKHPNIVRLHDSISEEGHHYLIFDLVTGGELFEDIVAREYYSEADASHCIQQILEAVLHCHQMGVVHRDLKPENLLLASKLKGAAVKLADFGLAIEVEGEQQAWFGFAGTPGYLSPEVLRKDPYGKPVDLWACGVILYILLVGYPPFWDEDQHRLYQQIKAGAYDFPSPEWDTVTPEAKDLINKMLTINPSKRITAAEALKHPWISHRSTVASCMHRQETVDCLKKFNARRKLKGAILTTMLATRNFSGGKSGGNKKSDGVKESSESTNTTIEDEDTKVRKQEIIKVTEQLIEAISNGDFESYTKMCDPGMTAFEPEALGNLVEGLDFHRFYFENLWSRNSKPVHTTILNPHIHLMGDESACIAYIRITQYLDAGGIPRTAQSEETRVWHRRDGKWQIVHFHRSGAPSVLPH
Read-out: enzyme activity
Action: inhibitor
Concentration: 10 µM
`CCCSSC` gave an inhibition of -10%.
For `CC(Cc1cccc(C(F)(F)F)c1)NCCOC(=O)c1ccccc1` (centres unmarked), the inhibition was -9%.
With `Nc1ccc(S(=O)(=O)NC(=O)c2ccccc2)cc1` the inhibition was -5%.
`CC(=O)NCCc1c[nH]c2ccc(O)cc12` gave an inhibition of 18%.
`CCC(O)C(=O)O` (centres unmarked) gave an inhibition of 28%.
For `COC(=O)c1c2c(c3ccccc3c1O)OC(C)(C)C=C2`, the inhibition was 11%.
For `COc1ccc(CN(CCN(C)C)c2ccccn2)cc1`, the inhibition was -1%.
`CC[C@]12CCCN3CCc4c(n(c5ccccc45)C(=O)C1)[C@@H]32` has an inhibition of -5%.
The inhibition of `CC(=O)Nc1ccc(S(=O)(=O)O)c2cc(S(=O)(=O)O)c(N=Nc3ccccc3)c(O)c12` is reported as -56%.
`CCC(C)(O)C(=O)O` (centres unmarked) gave an inhibition of 6%.
`Nc1ncn([C@@H]2O[C@H](CO)[C@@H](O)[C@H]2O)c(=O)n1` gave an inhibition of -10%.
For `CCOc1cc2ncc(C#N)c(Nc3ccc(OCc4ccccn4)c(Cl)c3)c2cc1NC(=O)/C=C/CN(C)C`, the inhibition was -4%.
For `O=C1CN(/N=C/c2ccc(-c3ccc([N+](=O)[O-])cc3)o2)C(=O)N1`, the inhibition was -7%.
With `Nc1cc(Cl)c(N=C2NCCN2)c(Cl)c1` the inhibition was -4%.
The inhibition of `COc1ccc(-c2cc(=O)c3c(OC)c(OC)c(OC)c(OC)c3o2)cc1O` is reported as 7%.
`CN(C)C(=O)c1ccc(S(=O)(=O)c2ccc(NC(=O)[C@@](C)(O)C(F)(F)F)c(Cl)c2)cc1` has an inhibition of -16%.

Sample 2
Compound: COc1cc(/C=C(\C#N)C(=O)c2ccc(O)c(O)c2)cc(I)c1O
Action: inhibitor
Concentration: 5 µM
It gave -0.119 for “log2 fold change” (BRAF (Homo sapiens, UniProt P15056, G466E); cell-based kinome profiling; human cells; relative to: vehicle control).
The “log2 fold change” was -0.611 (kinase–CDC37 interaction; kinase–CDC37 binding; human cells; oncogenic PRKAR1A-RET fusion; relative to: vehicle).
For BRAF (Homo sapiens, UniProt P15056, G596R); cell-based kinome profiling; human cells; relative to: vehicle control: “log2 fold change” read -0.108.
For FLT4 (Homo sapiens, UniProt P35916); cell-based translocation; human cells; relative to: vehicle: “log2 fold change” read -1.32.
For kinase–CDC37 interaction; kinase–CDC37 binding; human cells; oncogenic ETV6-SYK fusion; relative to: vehicle: “log2 fold change” read 0.505.
It gave 0.397 for “log2 fold change” (MAP3K12 (Homo sapiens, UniProt Q12852); cell-based kinome screen; human cells; relative to: untreated control).
The “log2 fold change” was -0.087 (PRKCQ (Homo sapiens, UniProt Q04759); cell-based kinome screen; human cells; relative to: untreated control).
The “log2 fold change” was 0.249 and 0.503 (RET (Homo sapiens, UniProt P07949); human cells; cell-based kinome screen; relative to: vehicle).
The “log2 fold change” was 0.059 log2 (PRKCB (Homo sapiens, UniProt P05771); cell-based kinome screen; human cells; relative to: untreated control).
The “log2 fold change” was 0.155 (NUAK2 (Homo sapiens, UniProt Q9H093); cell-based kinome screen; human cells; relative to: untreated control).
The “log2 fold change” was -0.026 (DAPK3 (Homo sapiens, UniProt O43293); human cells; relative to: vehicle).
The “log2 fold change” was 0.016 log2 (MAP3K6 (Homo sapiens, UniProt O95382); cell-based kinome screen; human cells; relative to: untreated control).
The “log2 fold change” was 0.517 (Dual specificity tyrosine-phosphorylation-regulated kinase 1B, with CDC37 (DYRK1B, Homo sapiens, UniProt Q9Y463); human cells; relative to: vehicle).
The “log2 fold change” was -0.05 (PTK6 (Homo sapiens, UniProt Q13882); kinase activity; cell-based kinome screen; relative to: vehicle).

Sample 3
Cell line: A-375
Concentration: 100 µM
Time: 18 h
For `Cc1cn([C@H]2C=C[C@@H](CO)O2)c(=O)[nH]c1=O`, the viability was 103%.
`CC(=O)Nc1ccc(CC(=O)O)cc1` gave a viability of 103%.
For `O=C(O)CCNC(=O)c1ccccc1`, the viability was 91.1%.
With `CCOc1ccccc1O[C@H](c1ccccc1)[C@H]1CNCCO1` (racemic) the viability was 104%.
For `C[C@@H]1O[C@@H](OC[C@H]2O[C@@H](Oc3c(-c4ccc(O)c(O)c4)oc4cc(O)cc(O)c4c3=O)[C@H](O)[C@@H](O)[C@@H]2O)[C@H](O)[C@H](O)[C@H]1O`, the viability was 98.1%.
The viability of `CC(=O)O[C@H]1CC[C@@]2(C)C(=CC[C@@H]3[C@@H]2CC[C@]2(C)C(c4cccnc4)=CC[C@@H]32)C1` is reported as 47.6%.
`CCN1CCC[C@H]1CNC(=O)c1cc(S(N)(=O)=O)ccc1OC` has a viability of 105%.
The viability of `CSCC1CN(/N=C/c2ccc([N+](=O)[O-])o2)C(=O)O1` (centres unmarked) is reported as 83.8%.
For `CC(=O)[C@@]1(O)CC[C@H]2[C@@H]3C[C@H](C)C4=CC(=O)C=C[C@]4(C)[C@@]3(F)[C@@H](O)C[C@@]21C`, the viability was 68.9%.
`CCN(CC)CCCC(C)Nc1ccnc2cc(Cl)ccc12` (centres unmarked) has a viability of 92.7%.
The viability of `C[C@H](CCC(=O)O)[C@H]1CC[C@H]2[C@@H]3CC[C@@H]4C[C@H](O)CC[C@]4(C)[C@H]3CC[C@]12C` is reported as 80.5%.
`CC(C)=CCC/C(C)=C/CC/C(C)=C/CC/C(C)=C/CC1=C(C)C(=O)c2ccccc2C1=O` has a viability of 59.4%.
`CCN(CC)Cc1cc(Nc2ccnc3cc(Cl)ccc23)ccc1O` gave a viability of 55%.

Mixed results
For `CN([C@@H]1CCc2c(CC(=O)O)c3cc(S(C)(=O)=O)ccc3n2C1)S(=O)(=O)c1ccc(F)cc1`, the inhibition was -1.56% (5-hydroxytryptamine receptor 5A (HTR5A, Homo sapiens, UniProt P47898); ligand displacement; 10 µM).

For quick reference, copied from above (mixed results):
For `CN([C@@H]1CCc2c(CC(=O)O)c3cc(S(C)(=O)=O)ccc3n2C1)S(=O)(=O)c1ccc(F)cc1`, the inhibition was -1.56% (5-hydroxytryptamine receptor 5A (HTR5A, Homo sapiens, UniProt P47898); ligand displacement; 10 µM).
